Results gathered from unrelated publications.
Each numbered part is a random draw from the data of one study; scales do not carry over between parts. Positions count from the first letter of the parent shown.

Block 1 — technique: RNA Bind-n-Seq; form: RNA; matrix: in vitro; tested at: not given; relative to: input RNA pool; direction: higher = stronger binding
Target: RING finger protein unkempt homolog, zinc fingers 1-6, GST-SBP tag (UNK, Homo sapiens, UniProt Q9C0B0, residues 30-357)
Notes: RNA with constant flanks, human-mouse chimeric sites, ends assumed
All sequences stand within: GGGAGUUCUACAGUCCGACGAUC … CAACAGAGGAUUGAGCAUCA
Target sequence (chain): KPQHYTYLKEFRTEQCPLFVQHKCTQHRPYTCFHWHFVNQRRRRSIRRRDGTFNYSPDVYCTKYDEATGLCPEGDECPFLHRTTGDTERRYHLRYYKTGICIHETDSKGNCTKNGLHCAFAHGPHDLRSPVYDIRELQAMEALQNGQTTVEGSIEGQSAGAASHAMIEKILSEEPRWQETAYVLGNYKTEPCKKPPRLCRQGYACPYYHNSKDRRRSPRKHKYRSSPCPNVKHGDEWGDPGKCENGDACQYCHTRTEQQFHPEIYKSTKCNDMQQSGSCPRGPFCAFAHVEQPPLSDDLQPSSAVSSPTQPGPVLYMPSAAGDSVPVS
| Strand | bound/input enrichment [ratio] |
| --- | --- |
| AAAGAGAAUGGAGAAGUAAAGAUUUUACUGAAAAGUGGGAAGGAGAAACCAAAAACAAAUAUAGAAGACUUACAAAUUAAAAAAGUAAAGAAGAAAAAGAAAAAGAAACACAAAGAGAAU | 19.6 |
| GUGUCCUGCUUUCAACUUAAAUCACUGAGGCAUCUCUACUGUUCUGUGAGCAUCAGGAUUUUAGUGCUGUGUCACCACAGAUGAGAACAGAAGCAGCCUUUCUGUGGAGGGUGGGAAUGA | 0.153 |
| UUGCCUGAGAACGAGGAUGAGCUGGAGAGCACCAAUAGGCGCUACACCAAGAGGGACUGCAGCACUUUCCUCAGAACUAGUGAGACGGGCAUCGUGGACCAGGUCAUGGUCACUCUCAAC | 0.121 |
| UAACCACAUCAAGAUGGUUGGAAAGCUGAAGCAGAACUUACUCUUGGCGUGUCUGGUGAUUAGUUCUGUGACUGUGUUUUACCUGGGCCAGCAUGCCAUGGAGUGCCAUCACCGAAUAGA | 0.418 |
| CUGUGCGGGUGACUGUCCUGGAGUGGCUGGAGUUCCCGCCGGAGCGCGGCCAGACUAAUUAUAGAAAAUGCCAAGUAGGAAGUUUGUUGAGGGUGAAGUGGUCAGAGGCCGAUGGCCUGG | 1.64 |
| AUGGAGAAGGAUUCUCUGCCCCGCUUUGUGCGCUCUGAAUUUUAUAAGGAGCUAAUCAAGUAGUAAUUUAGCCAGGCUUCCAAAAGUUGCCCUGUGAGUUGAGUUACAUCCUUUGUAGCA | 0.907 |
| CCUGCUCAGAUCACCAUGAAAGUAAUCCAAGGCCUAUAUAGUGGGGUCACCACAGUGGAACUAGAUACCCUGGCUGCUGAAACAGCUGCGACCUUGACCACGAAGCACCCUGACUAUGCC | 0.198 |
| GUGCCCUUCUCGCUGCUGCGGAGCCCGAGCUGGGAACCAUUCCGGGACUGGUACCCUGCACACAGCCGCCUCUUCGACCAGGCCUUCGGGGUGCCCCGGUUGCCCGAUGAGUGGUCGCAG | 0.0634 |
| AAAGUGAUGACUAUGUUUGUACAGCGACAGGUAUUUUCGGAGAGCAAAGAUGAGAUUGCGUUAGUCCUCUAUGGCACAGAUGGCACUGAUAAUGCCCUUGCUGGCAAGGAUCAGUAUCAG | 0.187 |
| ACCAUUUUCGCGGUUCAGGCUUUGUGUGUAGUUCACUUACGGUAUUAAAUUAUUAUUCUGCUUAGCUUAUAAUAAGGAUAAUUGCAUGAUUUAAGUAUACUGAAUGUUGUUAUUGUUCUU | 1.68 |
| CUGUGUGGCUUACUAAAAUGGCUUGUAAAGAAGUUUUUCCAAGCUGUAACCCAUGCUUCCCUUAGAGUUGCUGCAAAAUGUUCUUCCUGAUAUUGAUUUUAUUUGUUAACUGAAGGUCUC | 0.786 |

Block 2 — technique: RNA Bind-n-Seq; form: RNA; matrix: in vitro; tested at: 365 nM; relative to: no-protein control; direction: higher = stronger binding
Target: RNA binding protein fox-1 homolog 2, RRM domain, GST-SBP tag (RBFOX2, Homo sapiens, UniProt O43251-10, residues 100-194)
Notes: natural RNA segment, single round, ends assumed
All sequences stand within: GGGAGUUCUACAGUCCGACGAUC … UGGAAUUCUCGGGUGCCAA
Construct (chain): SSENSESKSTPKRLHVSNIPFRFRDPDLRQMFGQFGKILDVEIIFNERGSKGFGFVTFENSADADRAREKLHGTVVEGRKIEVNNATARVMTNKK
| Strand | RBNS enrichment (R) |
| --- | --- |
| CUCGUGAUCUUAAAAGGCAUUCUGAUGAUAAAUUUAGAAUUUUCAUCUAUAAAAUUUAGAACUCUAAUCCAUAAAGUUAGAAUUGAGCUAAUAGAGUGGUAUGACAUGGC | 0.489 |
| ACUAAAUGAAAGGAAGGGUAGUUUUAAUGUUGAAGCACCGUGCUGGGCACUGGAGCUACCCAGAGGAAUGCACAACGCUCCCCUCAAGGAGCUCACAGUCUAGCCUACUC | 0.269 |
| UGAAUAGAGUAAUAGAUAUUACUGGAAACUGAUUUGUUUUUUUUUUCCUAUUAUACUCUGCUUUAUUGAAAAAGUAAAGCAUUUAAAAUUGUGCUCCAGAAAUUCAGAUG | 0.381 |
| UGGGCCACUAGAUGGAGUAUCCUGGGCCUUUGUAGCAUAGCUCUUCUCUGGAGCACCCUAUUUGCUUGGCUCUUUCUGGAAGUAGGUCUCACCCAUGAGGGACAACAGGU | 0.692 |
| AAAGCAACAUGGAAAUAACCAUAGACAAAACUUAUUUGGGUAACUAGAAACCAAUGAGCUUUAGAUUCAUUCCUGGGUUUUUGCUUAAAAAAAAGUGAACUAAUAUAGCA | 2.6 |
| AGCAACCUGAAGGGAUUCCUUCAGCUUACCUGGUAACCACAGCUAGUAACUAAAACACCCUUCUCUCGGAAUAAUAGACCCUGAAGUCUCUCUUUUUCAAGUUGUCCUUU | 0.259 |
| CUGAGUUUAGAAGACCUAUUACAAAAAGUGAAGAACUAGACUGUGGGAAAAUAAAUGGCUUUUGACUCUAUUGUGUAAGGUACUUACUGGGGAUUGGAUUAAAGUAAAUA | 0.74 |
| AGACUGUAUCUGUCUACUUUGUGUGACUGUUUUGAGGGACUGUCCCAUCAGUGAACAGAUUGCAUGGCCUUGGAGAGAGACUCUGGGCUUCUGGCUCAGAUGUGUGCAUC | 2.26 |
| GGGAAGAAAUUUAAAUGGGGGAAAAUAAGCCAUCUUUUUAAACAAAAAUUAUUUUACCUACAGAGAGGUUGUAGUUUUGAGCACAUGUUAGUUCCUCCCUCUUCCCGAUG | 0.535 |
| AUCCACCUGCCUCUGCCCCCUGAUGCUGCCACCAUACCCAGCUGGUUUUAUCUUUUAAUGAUAACUUAGGUGCCCUUGGUGGGCUUUCCAAACCUGGUUACUCAACGUUA | 0.392 |
| CCCCUCUGUCAUGGCAGCUCUGCAGGGGCAUGAAUCUGAGUGACGAGAGCCUGCGUUCUUCUGCCUCAGCUCUGCUCCUCAGGAAGGGGUGGCUCCAGCUGCCCACCAUU | 1.1 |
| CAUCUAAUAUCUCAUGCAUGCAGUUUUGUUGUAUCAAUUAAAAGGGUUUUGUAUAUUUAUGGUGGGAGGCUACUGGGAACUUUUAACAAAAUAGGGAAUUAACUUUUGUA | 15.2 |

Block 3 — target: CCNF, cyclin fold, Cln2 fusion (human); technique: yeast growth competition, sequencing; matrix: yeast; notes: strong parent motif; relative to: not given; direction: higher = stronger binding
Starting sequence: RBL2 docking peptide (human); STTRRRLFVENDS
| Change | normalised enrichment score |
| --- | --- |
| S1P | 8.43 |
| T2E | 6.88 |
| F8M | 3.76 |
| S1M | 8.37 |
| E10Y | 6.26 |
| D12P | 9.46 |
| T3Y | 6.78 |
| R4E | 1.42 |
| L7Q | 0.515 |
| N11M | 9.25 |
| R5K F8L | 0.89 |
| V9R | 9.57 |
| R5G | 0.0756 |
| D12R | 8.36 |
| S13P | 9.29 |
| N11F | 9.26 |

Block 4 — target: UBE2T UBC core domain (UniProt Q9NPD8); technique: yeast two-hybrid; matrix: yeast; notes: mostly zero background; relative to: not given; direction: higher = stronger interaction
Chain of UniProt Q9NPD8 (whole entry, looked up): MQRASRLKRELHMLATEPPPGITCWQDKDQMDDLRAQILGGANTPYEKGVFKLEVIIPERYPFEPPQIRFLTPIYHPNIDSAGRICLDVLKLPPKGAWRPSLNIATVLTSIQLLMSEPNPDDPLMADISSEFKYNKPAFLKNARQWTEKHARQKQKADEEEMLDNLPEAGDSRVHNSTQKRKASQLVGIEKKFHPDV
B1: SYTL4 RING domain (UniProt Q96C24); chain RGSQHYSDRTCARCQESLGRLSPKTNTCRGCNHLVCRDCRIQESNGTWRCKVCAKEIELKKAT
B2: MDM4 RING domain (UniProt O15151); chain MEDCQNLLKPCSLCEKRPRDGNIIHGRTGHLVTCFHCARRLKKAGASCPICKKEIQLVIKVF
B3: RNF133 RING domain (UniProt Q8WVZ7); chain DEEINPNGDSCVICFERYKPNDIVRILTCKHFFHKNCIDPWILPHGTCPICKCDILKVLGIQ
B4: RNF19A RING domain (UniProt Q9NV58); chain ISKQIGDFIECPLCLLRHSKDRFPDIMTCHHRSCVDCLRQYLRIEISESRVNISCPECTERFNPHDIR
B5: RFWD3 RING domain (UniProt Q6PCD5); chain ASMDEEEGDTCTICLEQWTNAGDHRLSALRCGHLFGYRCISTWLKGQVRKCPQCNKKARHSDIVV
B6: MAP3K1 RING domain (UniProt Q13233); chain NSIKDEEEQMCPICLLGMLDEESLTVCEDGCRNKLHHHCMSIWAEECRRNREPLICPLCRSKWRSHDFYS
B7: DZIP3 RING domain (UniProt Q86Y13); chain PDEEEEEEEPCVICHENLSPENLSVLPCAHKFHAQCIRPWLMQQGTCPTCRLHVLLPEEFP
| Molecule | lacZ reporter activity |
| --- | --- |
| GSRLQEINDVCAICYHEFTTSARITPCNHYFHALCLRKWLYIQDTCPMCHQKVYIEDDIK (RNF139 RING domain (UniProt Q8WU17)) | 0 |
| B1 (SYTL4 RING domain) | 0 |
| AVPSGLEENLCKICMDSPIDCVLLECGHMVTCTKCGKRMNECPICRQYVIRAVHVF (RFFL RING domain (UniProt Q8WZ73)) | 0 |
| B2 (MDM4 RING domain) | 0 |
| PEDRESLKSACVVCLSSFKSCVFLECGHVCSCTECYRALPEPKKCPICRQAITRVIPLY (MUL1 RING domain (UniProt Q969V5)) | 0 |
| B3 (RNF133 RING domain) | 0 |
| KETIKKTTKPCPRCHVPVEKNGGCMHMKCPQPQCRLEWCWNCGCEWNRVCMG (PRKN RING domain (UniProt O60260)) | 0 |
| B4 (RNF19A RING domain) | 0 |
| B5 (RFWD3 RING domain) | 0 |
| B6 (MAP3K1 RING domain) | 0 |
| B7 (DZIP3 RING domain) | 0 |

A few entries again (block 2):
| Strand | RBNS enrichment (R) |
| --- | --- |
| AGCAACCUGAAGGGAUUCCUUCAGCUUACCUGGUAACCACAGCUAGUAACUAAAACACCCUUCUCUCGGAAUAAUAGACCCUGAAGUCUCUCUUUUUCAAGUUGUCCUUU | 0.259 |
| CUGAGUUUAGAAGACCUAUUACAAAAAGUGAAGAACUAGACUGUGGGAAAAUAAAUGGCUUUUGACUCUAUUGUGUAAGGUACUUACUGGGGAUUGGAUUAAAGUAAAUA | 0.74 |
| AGACUGUAUCUGUCUACUUUGUGUGACUGUUUUGAGGGACUGUCCCAUCAGUGAACAGAUUGCAUGGCCUUGGAGAGAGACUCUGGGCUUCUGGCUCAGAUGUGUGCAUC | 2.26 |
| GGGAAGAAAUUUAAAUGGGGGAAAAUAAGCCAUCUUUUUAAACAAAAAUUAUUUUACCUACAGAGAGGUUGUAGUUUUGAGCACAUGUUAGUUCCUCCCUCUUCCCGAUG | 0.535 |
| AUCCACCUGCCUCUGCCCCCUGAUGCUGCCACCAUACCCAGCUGGUUUUAUCUUUUAAUGAUAACUUAGGUGCCCUUGGUGGGCUUUCCAAACCUGGUUACUCAACGUUA | 0.392 |
